# Measured values of several laboratories.
# Each numbered part is a random draw from the data of one study; scales do not carry over between parts. Changes are numbered by the printed parent chain.

# Set 1 — target: CCNB1, cyclin fold, Cln2 fusion (human); technique: yeast growth competition, sequencing; medium: yeast; setting: weak parent motif; reference: not given; reading: higher = stronger binding
# Starting sequence: GMNC docking peptide (human); KNAKRNLSSEFAN
Change,normalised enrichment score
S8L,0.551
K4R,0.178
R5Y,0.124
R5T,0.189
S9L,-0.0521
N6G,0.149
S8H,0.297

# Set 2 — technique: RNA Bind-n-Seq; form: RNA; medium: in vitro; concentration: 365 nM; reference: no-protein control; reading: higher = stronger binding
# Target: RNA binding protein fox-1 homolog 2, RRM domain, GST-SBP tag (RBFOX2, Homo sapiens, UniProt O43251-10, residues 100-194)
# Setting: natural RNA segment, single round, ends assumed
# All sequences stand within: GGGAGUUCUACAGUCCGACGAUC … UGGAAUUCUCGGGUGCCAA
# Target sequence (chain): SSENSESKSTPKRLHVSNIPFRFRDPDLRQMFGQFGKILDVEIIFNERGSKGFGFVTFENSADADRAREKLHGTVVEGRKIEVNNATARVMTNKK
Sequence,RBNS enrichment (R)
GUUGCGGACAGCCCGCUCCACUCUCCACCCUGUACUCCAUAAAUAAAGCUACGUGCUUCUGCCCUGACGCACCAGCGCUCAUUUGUUUCUUGGUCUUUUUGAAGUUUCAC,0.917
CAAAAUAUAGUUUUAUCAUGUUAGGUGUAAUUAUGAUUUGAUUAAAUAUAUAAUGCAUUUGCAGUUGUACAUGGGCUAGUUAUAUCAUUUUAGGUGUAAUUAUGACCUGG,0.433
GUGUGGAACAGCAGAGAAAGUCCCGUCCCUAUCUCUGACUGUGCAGUGAGUGUGGCCUAGGAACAGGUCCCUUCCUAAGCUCUAGUGUCCCCAUCUGUAAAAUGGGCUGA,0.485
GGUCAAAAAGUGAUGGCUUUCAGGACUUGUUUUUUAUCCUGCCUCACAGUUGUUAAAGUCUGUUCCAAGGCAUCACCUUCCUUCUCUACCCAACAACCCUGUGUAACAAC,0.341
GCAGGUGUCUUAAUUUACUCAACCUUCCCUAAAAGAGAAUUGUAUUGGGGCAGGAGGGAUCGCAGUUCUUCAAAUUCAGGUCUUCGAAGAUAAUUUCCAGGUGUCUUCUC,0.619

# Set 3 — technique: protein-binding microarray; form: double-stranded DNA, one strand shown; medium: in vitro; concentration: 940 nM top; setting: 60-bp whole probe; added: salmon DNA 0.4 mg/ml; reference: random background probes; reading: higher = stronger binding; all sequences stand within: GCCTAGCAC … GTCTTGATTCGCTTGACGCTGCTG
# Target: Interferon regulatory factor 5, full length, phosphomimetic (IRF5, Homo sapiens, UniProt Q13568-2, residues 1-514, S451D/S453D/S456D/S462D)
Sequence,fitted relative affinity
TTAGGGTTCGGTTTCGGTTAGTGCTAG,8.4 z-score
GACGGTTTCGGTTGCGGGACGTGCTAG,13.5 z-score
GACGGTCTCGGTAGCGGGACGTGCTAG,2.9 z-score
TTAGGTATCCTACCGCTTTAGTGCTAG,-0.283 z-score
CTTTTATTAGTGACTCAGCACGTGCTA,0.375 z-score

# Further values, each from its own experiment
Molecule,target,test,system,setting,scale,quantity,result
"PhoQ, residues 284 288 289 292 302 303 QWGLFV","PhoP, residues 12 14 15 18 19 DLLYY (Escherichia coli, UniProt P23836)","Sort-seq, refers to: YFP reporter",E. coli,"PhoQ-PhoP variant library, added: 10 µM Mg2+","reference: high Mg2+ state, higher = stronger signaling",fold induction,3.05

# A few entries again (set 1):
Change,normalised enrichment score
R5T,0.189
N6G,0.149
